Assay results pooled from the literature.
Numbered parts are unrelated; each lists some results of a single study. Positions count from the first letter of the parent shown.

Set 1 — technique: protein-binding microarray; molecule type: double-stranded DNA, one strand shown; sample: in vitro; tested at: 250 nM; notes: 60-bp whole probe; added: salmon DNA 0.4 mg/ml; baseline: random background probes; direction: higher = stronger binding; measurement: log fluorescence; shared flanks, not repeated: GCCTAGCAC … GTCTTGATTCGCTTGACGCTGCTG
Target: Interferon regulatory factor 5, full length, phosphomimetic (IRF5, Homo sapiens, UniProt Q13568-2, residues 1-514, K96S/S451D/S453D/S456D/S462D)
TCAAGCCTAAGGTTTAGGACTGTGCTA: -0.426 z-score
CTTTCTTTATGCACTCTCTACGTGCTA: 1.59 z-score
GCGCTTCTCGAGTGCCGGCTGGTGCTA: -0.379 z-score
GACGGTTTCGGAGTGGGGACGTGCTAG: 3.73 z-score
GACGCTCTCCTTATCCTGACGTGCTAG: -0.203 z-score
GACGAACTGAGACTGGCGACGTGCTAG: -0.552 z-score
CCACTTTCCATTTCTGTTTTTGTGCTA: 4.24 z-score
GACGGTTTCGGTCTCGGGACGTGCTAG: 9.64 z-score
GATTGGTTGAACATGAACTTGTGCTAG: 0.193 z-score
TTCGGTCTCGGACTGGGTTAGTGCTAG: 0.494 z-score
TACGATTTCAGTCTCGAGACGTGCTAG: 1.62 z-score

Set 2 — technique: RNA Bind-n-Seq; molecule type: RNA; sample: in vitro; tested at: 365 nM; baseline: no-protein control; direction: higher = stronger binding; measurement: RBNS enrichment (R)
Target: RNA binding protein fox-1 homolog 2, RRM domain, GST-SBP tag (RBFOX2, Homo sapiens, UniProt O43251-10, residues 100-194)
Notes: natural RNA segment, single round, ends assumed
Shared flanks, not repeated: GGGAGUUCUACAGUCCGACGAUC … UGGAAUUCUCGGGUGCCAA
Residues (chain): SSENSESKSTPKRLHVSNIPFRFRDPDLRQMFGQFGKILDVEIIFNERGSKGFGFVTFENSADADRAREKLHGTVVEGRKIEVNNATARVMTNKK
UUCUGCCUACCAUCCAGGAAAACUUGUGCUGGAAUUGCUGAUGGAAACAAUUAAAUAUUUACUAUAAUCAGUGUCUUUUCUUCAUCUGCAAGGAACUUUAGCAGGUGCCU: 0.323
GCCCGCUAUUUAGAGCCAUCCCUCAGUCAGCUGGCAGGGACAAGCCAACGCCAGGUAGCAUGUGGCCACCCUUGCCCAGUGUCUGUGGCCUGGCAAGUGGCCACGCCCUG: 2.99
CCGGCCUUACCUCGUCUUCAUCCGUGGUGAGCAGCCUUCGUCAGUCUAGUUGUGUUGAAGCCAAGUGCAGUUGUGGAUGUUGCUGGGGUAAUAAAGGCAAGCGGGCUCCA: 0.387
UCUCUAACCCCACCCCCUCCAAGCUGGGUUCUUUGUGGAAGAAGGACAGGGAGCUAGAGCCAAGCCCUAGGCUUGAGAGACACCUGCAUCUAUAAUCCCCGCCAAGGAUG: 0.405
GAGUCAGUAGACUAUUUAGAGACUCAUGUAACUUGGGGUAUGGGCAUGCCUUUAUGGGAGCAGCCACUCUCUGACUAAGUGGCCACUGCUCUCACUUAGACUUUGCUGUC: 0.465
AUAAAUACUGGUGUAUCCCCUGACUUGUACCCAGAGUACAAGGUGACAGUGACACAUGUAACUUAGCAUAGGCAAAGGGUUCUACAACCAAAGAAGCCACUGUUUGGGGA: 0.814
CCAGUCUUCACCCCAACCUCAGCUGAUUGUAGUACACCUGCUAGCUCUGUUGCCCCCUCAAAACUGCACCCAGAGCAGGGCCACAAGGGUGCUUUUUUUCUUUAAAAAAA: 0.707
CUGCUUGAUGAAGCAAGGAAGAUAUACAUGAAAAUUUUAAAAAUACAUAUCGCUGACUUCAUGGAAUGGACAUCCUGUAUAAGCACUGAAAAACAACAACACAAUAACAC: 0.975
UGGUGCUGUUUUUAUGAAAACCUCUGAUCCUUGGUGUCCUUUAAUUGAUCUGUUCAACAAAUAUUUACUAAACACUUCUAAGCUAACAUUAGGGCAGUGACUGAGGUGGA: 0.481
GCUUGUGCAGACACUCAGGGAUGGAGCUGCUGCUGAAGGGACUUGUAGGGAGAGGCUCGUCAACAAGCACUGUUCUGGAACCUUCUCUCCACGUGGCCCACAGGCCUGAC: 0.522
UUUAUUAAGACAGAAUUUUGUAUAAACUAUUUAUUGUGCUCUCUGUGGAACUGAAGUUUGAUUUAUUUUUGUACUACACGGCAUGGGUUUGUUGACACUUUAAUUUUGCU: 2.92
AUGGUGCUAAGUUUUUACAGUUGUCUUAGCCCCAGUGGUUCUCAAGGUGGGGCUCCUGGCCCAGCAGCAGCAACUUGUUUGUUAGAAUGCAGACGCGCAGGCCCCACCUG: 0.378

Set 3 — technique: protein binding microarray; molecule type: double-stranded DNA, one strand shown; sample: in vitro; tested at: not given; baseline: not given; direction: higher = stronger binding; measurement: E-score
Target: Histone acetyltransferase KAT6A, both winged helices, GST fusion (KAT6A, Homo sapiens, UniProt Q92794, residues 1-181)
Notes: 8-mer, flanks averaged, mean of 2 arrays, mostly near background
Construct (chain): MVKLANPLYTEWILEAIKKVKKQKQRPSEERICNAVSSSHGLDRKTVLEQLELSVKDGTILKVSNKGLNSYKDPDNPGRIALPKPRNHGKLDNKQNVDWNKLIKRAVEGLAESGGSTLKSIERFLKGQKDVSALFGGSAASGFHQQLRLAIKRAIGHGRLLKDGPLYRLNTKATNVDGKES
CCGTAGTC: 0.273
AGTACGCA: 0.0738
CCCCAGCC: -0.189
GGATATTA: 0.0493
CATATTAG: -0.0511
ATGATGGC: -0.147
CAGGTTCA: -0.137
CCGAGTTC: 0.0402
AGTGCGAC: 0.2
ACAATATA: 0.0555
AACACGCG: 0.267
ACCTCCCG: 0.18
ATGGTTCG: 0.15
CTACAGAC: -0.113
AGCGGTCG: 0.213
CGATAGCA: 0.0123

Set 4 — technique: universal PBM; molecule type: double-stranded DNA, one strand shown; sample: in vitro; tested at: 600 nM; direction: higher = stronger binding; measurement: E-score
Target: Sal-like protein 4, full length isoform A (SALL4, Homo sapiens, UniProt Q9UJQ4, residues 1-1053)
Sequence of UniProt Q9UJQ4 (whole entry, looked up): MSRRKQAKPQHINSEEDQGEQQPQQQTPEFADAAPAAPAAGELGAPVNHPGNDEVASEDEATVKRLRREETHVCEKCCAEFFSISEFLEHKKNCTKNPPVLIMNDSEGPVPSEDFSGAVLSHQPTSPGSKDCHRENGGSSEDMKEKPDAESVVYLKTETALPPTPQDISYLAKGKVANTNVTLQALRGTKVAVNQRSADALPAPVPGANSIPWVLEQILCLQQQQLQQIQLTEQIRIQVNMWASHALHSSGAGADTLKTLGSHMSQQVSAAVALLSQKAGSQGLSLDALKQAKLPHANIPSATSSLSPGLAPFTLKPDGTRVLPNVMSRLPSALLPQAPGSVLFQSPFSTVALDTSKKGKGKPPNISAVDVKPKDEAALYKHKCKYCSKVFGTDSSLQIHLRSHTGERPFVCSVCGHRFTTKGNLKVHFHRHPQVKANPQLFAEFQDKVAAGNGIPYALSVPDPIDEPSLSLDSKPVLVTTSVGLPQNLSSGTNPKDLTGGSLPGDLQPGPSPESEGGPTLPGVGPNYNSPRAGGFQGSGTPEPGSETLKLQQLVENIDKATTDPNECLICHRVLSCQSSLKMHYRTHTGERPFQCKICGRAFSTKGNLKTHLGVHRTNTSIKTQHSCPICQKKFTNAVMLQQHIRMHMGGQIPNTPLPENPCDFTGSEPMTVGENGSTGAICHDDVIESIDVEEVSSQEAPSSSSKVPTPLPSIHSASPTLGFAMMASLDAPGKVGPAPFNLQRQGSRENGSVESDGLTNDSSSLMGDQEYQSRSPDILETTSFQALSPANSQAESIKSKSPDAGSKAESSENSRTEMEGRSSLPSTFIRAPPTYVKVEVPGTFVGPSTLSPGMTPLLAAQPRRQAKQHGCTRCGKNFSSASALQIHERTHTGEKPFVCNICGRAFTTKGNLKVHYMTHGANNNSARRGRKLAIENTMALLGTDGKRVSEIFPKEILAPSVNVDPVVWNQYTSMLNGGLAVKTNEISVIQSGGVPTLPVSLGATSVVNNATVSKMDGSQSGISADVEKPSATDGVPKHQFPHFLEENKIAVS
Notes: 8-mer, flanks averaged, mean of replicates
AACTCACG: 0.035
AAGTAGAT: 0.149
ATACGGGG: -0.144
GATTCCAC: 0.0191
CATTCCCG: -0.0285
CGTGCAGA: -0.078
CGGATCTC: -0.202
GAGATCCC: -0.165
GCGGAACC: -0.206
CAAGATGC: 0.0558
AGCGTTTG: -0.119
GTGGCCAA: -0.225
GATTTGCA: 0.123
CTCAAAGC: 0.0424
ACCACAAC: 0.0957
TAGGGTGA: -0.00863

Set 5 — technique: EMSA with sequencing; molecule type: double-stranded DNA, one strand shown; sample: in vitro; tested at: 10 and 20 nM; baseline: negative control set to 0; direction: higher = stronger binding; measurement: normalised bound fraction
Target: Hepatocyte nuclear factor 3-alpha (Foxa1, Mus musculus, UniProt P35582, residues 1-468, full length assumed)
Notes: whole designed probe, mean of two concentrations, ends assumed
Target sequence (chain): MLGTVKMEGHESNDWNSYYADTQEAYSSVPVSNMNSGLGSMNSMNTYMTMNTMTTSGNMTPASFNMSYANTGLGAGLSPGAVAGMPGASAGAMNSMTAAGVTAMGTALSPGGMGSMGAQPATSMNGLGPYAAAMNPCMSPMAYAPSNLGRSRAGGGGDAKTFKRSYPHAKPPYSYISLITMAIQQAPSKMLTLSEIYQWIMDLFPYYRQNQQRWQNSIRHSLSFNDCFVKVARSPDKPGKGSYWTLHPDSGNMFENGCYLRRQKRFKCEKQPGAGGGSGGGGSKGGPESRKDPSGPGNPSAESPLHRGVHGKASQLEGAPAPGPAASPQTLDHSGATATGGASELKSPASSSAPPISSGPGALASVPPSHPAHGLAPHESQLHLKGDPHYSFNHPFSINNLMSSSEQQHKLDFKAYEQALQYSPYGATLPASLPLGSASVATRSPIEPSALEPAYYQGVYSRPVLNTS
GTGAGCGGTGCCCATTGATGGGGAACTCCACAGTAGAAACGAAGGAGATGACAGATACCCCGGCACCAAAACTGACACCAGGTTTTTGTTGCTTCTTCCACTATATAATGGAGAAGTTCTGTTTACTCTATACTGTTAACATTGGCGTTGTGCAACTTAAGGAAACCCAAGAAACTGAATCACATCAAAGGTATGTCAGAGGTATGTGAACCAGAGCAATTTCACTGGGATCGTGGGGAC: 0.352 ratio
GTGAGCGGTGCCCATTGATGGGGAACGGCAAGGTCTCAGGATGTCAAAGGCTCAAGAAATACAAAAATTAGATATGATGAATACTCTTACCAGCCTAACAGGCTTATTCTCTCCTTTAAGCAATCTATATGGGAATCAAATTATTAAAAGGCTACACAGTGGGTGATTAATCAGAATAAGGGTAGTTTTATTTGAAAATTTATAAGGTTCAACTTACTATTTCACTGGGATCGTGGGGAC: 0.499 ratio
GTGAGCGGTGCCCATTGATGGGGAACATCTTCCCCCTCTTCCTTGCCCCACCAGCTCACCTTCCCGGGTATATTGGAGATAGGAAATTAATATAAGCCGGCATTCGTTAACCCTCTTCACGCGCATACTGCACATTGGTCTGGATGAATCATGGTCCTTTGGCGACGCCAGGCTCCGGGAGAGCAAAGCACCGTGTCAGGGCCATGATCCGGGGTGGCCTTTCACTGGGATCGTGGGGAC: 0.0205 ratio

Set 6 — technique: RNA Bind-n-Seq; molecule type: RNA; sample: in vitro; tested at: not given; notes: RNA with constant flanks, ends assumed; baseline: input RNA pool; direction: higher = stronger binding; measurement: bound/input enrichment
Target: RING finger protein unkempt homolog, zinc fingers 1-6, GST-SBP tag (UNK, Homo sapiens, UniProt Q9C0B0, residues 30-357)
Sequence of UniProt Q9C0B0 (30-357, looked up): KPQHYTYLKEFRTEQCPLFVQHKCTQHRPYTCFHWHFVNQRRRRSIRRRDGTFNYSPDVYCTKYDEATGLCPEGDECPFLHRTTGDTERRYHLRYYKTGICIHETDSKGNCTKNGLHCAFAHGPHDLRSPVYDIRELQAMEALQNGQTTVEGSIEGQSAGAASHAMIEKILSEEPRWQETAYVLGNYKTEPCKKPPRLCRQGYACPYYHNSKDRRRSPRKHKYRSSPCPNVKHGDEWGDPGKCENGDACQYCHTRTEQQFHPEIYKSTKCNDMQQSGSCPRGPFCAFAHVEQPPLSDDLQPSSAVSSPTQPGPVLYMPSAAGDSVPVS
Shared flanks, not repeated: GGGAGUUCUACAGUCCGACGAUC … CAACAGAGGAUUGAGCAUCA
UCUUUUUUUGCUGGGGAUAAAAACGAAGCACAUAAACUAAAGGAGGACUUCCGGCUACACUUCCGGAACAUUUCAAGAAUCAUGGACUGUGUUGGCUGCUUCAAGUGCCGCCUGUGGGGC: 0.367 ratio
AACAGUAGUACAGCUAUUGGGAUCAGAUGUAAAGAUGGUGUUGUGUUUGGGGUAGAAAAACCCGUCCUUUCUAAACUUUAUGAAGAAGGCUCCAAUAAACGUCUUUUUAAUGUUGAUCGA: 0.225 ratio
GGCCAGGAACAGUCUUCACGGGGACAAAGAAUUUUAUCUAUUCCAAUUUGGCCCCCAAACCCCGGCAUCUCUCAGAACUGUGUUUAUGAGGCACAGCAGGUUCCCAAAGUAGAAAAAACA: 0.642 ratio
CCAAAACAUGUGAUAUCCCUUUAACCUGUGCACAGUCUGGAGGCAGUUUUAUUGAGUGAGCCGUUGAGUGAGAGAACAAAAUGCCCAGCAAAACUUCUGGCCUCCACAGUUUGCUGAUGC: 0.18 ratio
UAAAAUUUGCAAGUGUAUGGAGGACUAACCUCACUGACAGGAGGGGAUUCCACCUGGGAUCCGCUUUAUGAUUGUUGAUUGCCUAUUUUGCCAUUUAUAAACUGAAAGAAGGCACUAAAG: 0.18 ratio
GAAAUAAAUGUGGAAGCUAAGCAAGUUAAGGAUAUCAUGAAAACACUCGAGAGCUUCAAACCCGACAUCACUUCUUUGCAAGCUGCACAACAUGAAUUUCCAGCUGCUGAAGGAGAAGUC: 0.22 ratio

Set 7 — technique: DHFR PCA, deep sequencing; sample: yeast; added: (+)-ABA 17 µM; baseline: wild-type fitted maximum; direction: higher = stronger binding; measurement: relative binding score
Target: ABI1, truncated, D143A, DHFR fusion (Arabidopsis thaliana)
Notes: methotrexate growth selection, single substitutions
Starting sequence: PYL1, truncated, DHFR fusion (Arabidopsis thaliana); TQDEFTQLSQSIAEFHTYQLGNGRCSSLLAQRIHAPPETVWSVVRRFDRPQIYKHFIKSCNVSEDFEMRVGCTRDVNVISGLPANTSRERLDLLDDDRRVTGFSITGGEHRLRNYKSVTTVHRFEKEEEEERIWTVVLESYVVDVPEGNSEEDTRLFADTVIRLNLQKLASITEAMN
V161G: 2.19%
R45D: -12.4%
Q31S: 13.7%
T86F: 75.7%
T119V: 45.8%
N177S: 93.9%
P146C: 31.9%
T135V: 7.14%
V118M: 72.3%
Q51N: 57.1%
L29Q: 45.8%
L29I: 85%
V118Q: 38.9%
R24V: 73.5%

Excerpt of the above (set 7):
P146C: 31.9%
V118Q: 38.9%
T135V: 7.14%
R24V: 73.5%
